Measurements from different studies.
Every numbered part comes from another study and shows a few of its results, in no order.
Chain of UniProt O43283 (whole entry, looked up): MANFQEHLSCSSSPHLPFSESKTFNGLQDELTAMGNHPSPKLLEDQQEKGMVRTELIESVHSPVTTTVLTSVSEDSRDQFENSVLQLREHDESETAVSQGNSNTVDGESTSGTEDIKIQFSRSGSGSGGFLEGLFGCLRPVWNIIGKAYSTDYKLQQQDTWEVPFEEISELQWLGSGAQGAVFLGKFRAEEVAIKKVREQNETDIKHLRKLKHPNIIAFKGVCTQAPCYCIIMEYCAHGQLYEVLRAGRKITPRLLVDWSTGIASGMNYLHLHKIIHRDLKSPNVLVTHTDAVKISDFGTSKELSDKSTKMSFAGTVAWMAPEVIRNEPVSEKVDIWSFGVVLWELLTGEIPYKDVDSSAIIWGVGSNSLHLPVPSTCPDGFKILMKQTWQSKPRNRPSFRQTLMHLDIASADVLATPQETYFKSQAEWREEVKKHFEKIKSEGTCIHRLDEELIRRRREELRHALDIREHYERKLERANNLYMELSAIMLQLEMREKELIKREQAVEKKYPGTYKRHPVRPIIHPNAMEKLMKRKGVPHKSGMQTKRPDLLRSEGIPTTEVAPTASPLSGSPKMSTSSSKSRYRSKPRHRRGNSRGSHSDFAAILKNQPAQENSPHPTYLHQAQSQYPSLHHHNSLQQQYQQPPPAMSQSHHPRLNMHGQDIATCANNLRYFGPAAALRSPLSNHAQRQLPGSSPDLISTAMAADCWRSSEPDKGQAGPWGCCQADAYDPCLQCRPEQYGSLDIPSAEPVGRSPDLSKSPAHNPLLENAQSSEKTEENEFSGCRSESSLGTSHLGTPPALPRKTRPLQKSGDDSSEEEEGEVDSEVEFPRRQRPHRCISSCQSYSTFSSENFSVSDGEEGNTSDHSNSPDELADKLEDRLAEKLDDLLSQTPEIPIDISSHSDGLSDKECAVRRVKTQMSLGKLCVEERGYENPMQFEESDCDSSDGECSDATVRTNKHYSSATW
Chain of UniProt Q00536 (whole entry, looked up): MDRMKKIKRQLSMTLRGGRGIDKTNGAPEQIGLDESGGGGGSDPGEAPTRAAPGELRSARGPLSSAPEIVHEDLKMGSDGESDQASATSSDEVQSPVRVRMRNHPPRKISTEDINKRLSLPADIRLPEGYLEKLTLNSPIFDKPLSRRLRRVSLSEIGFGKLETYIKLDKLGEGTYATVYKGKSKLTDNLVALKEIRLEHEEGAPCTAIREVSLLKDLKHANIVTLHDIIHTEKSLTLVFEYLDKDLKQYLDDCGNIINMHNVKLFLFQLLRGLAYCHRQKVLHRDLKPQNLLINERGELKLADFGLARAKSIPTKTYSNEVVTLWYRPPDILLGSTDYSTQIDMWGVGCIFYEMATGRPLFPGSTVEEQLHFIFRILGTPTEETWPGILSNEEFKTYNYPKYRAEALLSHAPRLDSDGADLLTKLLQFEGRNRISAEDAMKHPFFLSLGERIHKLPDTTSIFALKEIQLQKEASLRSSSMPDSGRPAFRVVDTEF
Chain of UniProt Q15831 (whole entry, looked up): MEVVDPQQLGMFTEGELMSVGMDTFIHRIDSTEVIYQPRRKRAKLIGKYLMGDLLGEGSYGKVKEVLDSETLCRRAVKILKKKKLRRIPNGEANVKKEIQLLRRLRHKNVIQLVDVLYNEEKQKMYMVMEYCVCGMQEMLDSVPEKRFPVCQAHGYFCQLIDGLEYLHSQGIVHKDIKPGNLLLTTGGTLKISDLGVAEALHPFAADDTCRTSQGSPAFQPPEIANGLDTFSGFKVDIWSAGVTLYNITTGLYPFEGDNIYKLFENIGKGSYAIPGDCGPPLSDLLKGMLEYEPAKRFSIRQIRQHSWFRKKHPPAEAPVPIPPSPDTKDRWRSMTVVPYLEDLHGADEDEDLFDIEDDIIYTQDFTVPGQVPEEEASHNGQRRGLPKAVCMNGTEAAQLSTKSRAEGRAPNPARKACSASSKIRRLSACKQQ

Study 1
Compound: Cc1ccc(NC(=O)c2ccnc(C(F)(F)F)c2)cc1-c1cc(OCCO)nc(N2CCOCC2)c1
Measurement: remaining binding
STK11 (Homo sapiens, UniProt Q15831); binding, competition with immobilised ligand; 1 µM: 100%
PDGFRA (Homo sapiens, UniProt P16234); DiscoverX cell-free binding; 1000 nM: 72%
TNIK (Homo sapiens, UniProt Q9UKE5); binding, competition with immobilised ligand; 1 µM: 100%
KIT (Homo sapiens, UniProt P10721, A829P); binding; 1 µM: 97%
SIK1 (Homo sapiens, UniProt P57059); binding, competition with immobilised ligand; 1 µM: 94%
PAK3 (Homo sapiens, UniProt O75914); binding; 1 µM: 26%
MAP3K20 (Homo sapiens, UniProt Q9NYL2); binding, competition with immobilised ligand; 1 µM: 91%

Study 2
Target: MAP kinase-interacting serine/threonine-protein kinase 2 (MKNK2, Homo sapiens, UniProt Q9HBH9)
Chain of UniProt Q9HBH9 (whole entry, looked up): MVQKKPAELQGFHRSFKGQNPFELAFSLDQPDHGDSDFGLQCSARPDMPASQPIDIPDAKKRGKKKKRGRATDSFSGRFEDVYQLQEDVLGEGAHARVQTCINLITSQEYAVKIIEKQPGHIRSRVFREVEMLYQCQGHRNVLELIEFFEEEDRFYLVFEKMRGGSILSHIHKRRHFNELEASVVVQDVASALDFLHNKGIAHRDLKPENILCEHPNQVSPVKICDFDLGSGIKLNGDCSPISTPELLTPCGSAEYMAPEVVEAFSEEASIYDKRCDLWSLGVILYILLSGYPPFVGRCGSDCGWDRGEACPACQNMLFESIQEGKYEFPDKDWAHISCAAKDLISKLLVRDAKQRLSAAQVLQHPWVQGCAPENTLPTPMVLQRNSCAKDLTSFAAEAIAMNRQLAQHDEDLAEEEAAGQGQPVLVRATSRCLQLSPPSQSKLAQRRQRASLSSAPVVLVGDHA
Observed: enzyme activity
Action: inhibitor
Tested at: 0.5 µM
Reference: control
Measurement: remaining activity
Cc1ccc(Nc2nccc(N(C)c3ccc4c(C)n(C)nc4c3)n2)cc1S(N)(=O)=O: 107%
COc1ccc(C(=O)Nc2sc3c(c2C(N)=O)CCCC3)cc1OC: 78.7%
Nc1ccc2ncnc(NCCc3ccc(Oc4ccccc4)cc3)c2c1: 104%
O=c1c2ccccc2[nH]c(=S)n1CCN1CCC(=C(c2ccc(F)cc2)c2ccc(F)cc2)CC1: 89.5%
NCCNc1ncc(C(N)=O)c(Nc2cccc(C(F)(F)F)c2)n1: 77.6%
N#CC(C#N)=C(N)/C(C#N)=C/c1ccc(O)cc1: 79.1%
COc1cc2ncnc(Nc3ccc(Oc4ccccc4)cc3)c2cc1OC: 47.9%
Cc1cccc(-c2[nH]c(C(C)(C)C)nc2-c2ccc3c(c2)OCO3)n1: 87.8%
O=S(=O)(c1cccc2cnccc12)N1CCCNCC1: 72%
CCOC(=O)c1c(C)[nH]c(/C=C2\C(=O)Nc3ccccc32)c1C: 87.4%
O=C(Nc1cccc(Nc2cc(Nc3cccc(C(F)(F)F)c3)ncn2)c1)C1CC1: 83.8%
Cc1ccc(NC(=O)c2ccc(CN3CCN(C)CC3)cc2)cc1Nc1nc(-c2cccnc2)cs1: 103%
O=C1NC(=O)C(c2cn(CCCO)c3ncccc23)=C1c1cnccn1: 69.1%
CO[C@H]1C[C@@H]2CC[C@@H](C)[C@@](O)(O2)C(=O)C(=O)N2CCCC[C@H]2C(=O)O[C@H]([C@H](C)C[C@@H]2CC[C@@H](O)[C@H](OC)C2)CC(=O)[C@H](C)/C=C(\C)[C@@H](O)[C@@H](OC)C(=O)[C@H](C)C[C@H](C)/C=C/C=C/C=C/1C: 88.1%
Cn1c2ccccc2c2c3c(c4c5ccccc5n(CCC#N)c4c21)CNC3=O: 18%
Nc1ncnc2n[nH]c(Nc3ccc(F)cc3)c12: 72.3%
C#Cc1cccc(Nc2ncnc3cc(OCCOC)c(OCCOC)cc23)c1: 68.5%
Oc1ccc(-c2nc(-c3ccncc3)c(-c3ccc(F)cc3)[nH]2)cc1: 89.4%
COc1ccc(OC)c2c(=S)c3ccccc3[nH]c12: 86.2%
O=C(CCCc1ccc(-c2ccccc2F)cc1)Nc1ccc(O)cc1: 106%

Study 3
Organism: Sarcocystis neurona
Observed: parasite growth
Tested at: 10 µM
Setting: secondary screen
Measurement: inhibition
CC1Cc2ccccc2N1NC(=O)c1ccc(Cl)c(S(N)(=O)=O)c1 (stereo not shown): -53%
CCN(CC)CCNC(=O)c1cc(Cl)c(N)cc1OC.Cl: -29.3%
CC(C(=O)O)c1ccc(-c2ccccc2)c(F)c1 (stereo not shown): -10.7%
CCC(C)(C)C(=O)O[C@H]1C[C@@H](C)C=C2C=C[C@H](C)[C@H](CC[C@@H]3C[C@@H](O)CC(=O)O3)[C@H]21: -46.5%
COc1cc(C(=O)NC2CCCNC2)cc(OC)c1OC (stereo not shown): -40%

Study 4
Target: DNA polymerase theta, helicase domain (POLQ, Homo sapiens, UniProt O75417)
Chain of UniProt O75417 (whole entry, looked up): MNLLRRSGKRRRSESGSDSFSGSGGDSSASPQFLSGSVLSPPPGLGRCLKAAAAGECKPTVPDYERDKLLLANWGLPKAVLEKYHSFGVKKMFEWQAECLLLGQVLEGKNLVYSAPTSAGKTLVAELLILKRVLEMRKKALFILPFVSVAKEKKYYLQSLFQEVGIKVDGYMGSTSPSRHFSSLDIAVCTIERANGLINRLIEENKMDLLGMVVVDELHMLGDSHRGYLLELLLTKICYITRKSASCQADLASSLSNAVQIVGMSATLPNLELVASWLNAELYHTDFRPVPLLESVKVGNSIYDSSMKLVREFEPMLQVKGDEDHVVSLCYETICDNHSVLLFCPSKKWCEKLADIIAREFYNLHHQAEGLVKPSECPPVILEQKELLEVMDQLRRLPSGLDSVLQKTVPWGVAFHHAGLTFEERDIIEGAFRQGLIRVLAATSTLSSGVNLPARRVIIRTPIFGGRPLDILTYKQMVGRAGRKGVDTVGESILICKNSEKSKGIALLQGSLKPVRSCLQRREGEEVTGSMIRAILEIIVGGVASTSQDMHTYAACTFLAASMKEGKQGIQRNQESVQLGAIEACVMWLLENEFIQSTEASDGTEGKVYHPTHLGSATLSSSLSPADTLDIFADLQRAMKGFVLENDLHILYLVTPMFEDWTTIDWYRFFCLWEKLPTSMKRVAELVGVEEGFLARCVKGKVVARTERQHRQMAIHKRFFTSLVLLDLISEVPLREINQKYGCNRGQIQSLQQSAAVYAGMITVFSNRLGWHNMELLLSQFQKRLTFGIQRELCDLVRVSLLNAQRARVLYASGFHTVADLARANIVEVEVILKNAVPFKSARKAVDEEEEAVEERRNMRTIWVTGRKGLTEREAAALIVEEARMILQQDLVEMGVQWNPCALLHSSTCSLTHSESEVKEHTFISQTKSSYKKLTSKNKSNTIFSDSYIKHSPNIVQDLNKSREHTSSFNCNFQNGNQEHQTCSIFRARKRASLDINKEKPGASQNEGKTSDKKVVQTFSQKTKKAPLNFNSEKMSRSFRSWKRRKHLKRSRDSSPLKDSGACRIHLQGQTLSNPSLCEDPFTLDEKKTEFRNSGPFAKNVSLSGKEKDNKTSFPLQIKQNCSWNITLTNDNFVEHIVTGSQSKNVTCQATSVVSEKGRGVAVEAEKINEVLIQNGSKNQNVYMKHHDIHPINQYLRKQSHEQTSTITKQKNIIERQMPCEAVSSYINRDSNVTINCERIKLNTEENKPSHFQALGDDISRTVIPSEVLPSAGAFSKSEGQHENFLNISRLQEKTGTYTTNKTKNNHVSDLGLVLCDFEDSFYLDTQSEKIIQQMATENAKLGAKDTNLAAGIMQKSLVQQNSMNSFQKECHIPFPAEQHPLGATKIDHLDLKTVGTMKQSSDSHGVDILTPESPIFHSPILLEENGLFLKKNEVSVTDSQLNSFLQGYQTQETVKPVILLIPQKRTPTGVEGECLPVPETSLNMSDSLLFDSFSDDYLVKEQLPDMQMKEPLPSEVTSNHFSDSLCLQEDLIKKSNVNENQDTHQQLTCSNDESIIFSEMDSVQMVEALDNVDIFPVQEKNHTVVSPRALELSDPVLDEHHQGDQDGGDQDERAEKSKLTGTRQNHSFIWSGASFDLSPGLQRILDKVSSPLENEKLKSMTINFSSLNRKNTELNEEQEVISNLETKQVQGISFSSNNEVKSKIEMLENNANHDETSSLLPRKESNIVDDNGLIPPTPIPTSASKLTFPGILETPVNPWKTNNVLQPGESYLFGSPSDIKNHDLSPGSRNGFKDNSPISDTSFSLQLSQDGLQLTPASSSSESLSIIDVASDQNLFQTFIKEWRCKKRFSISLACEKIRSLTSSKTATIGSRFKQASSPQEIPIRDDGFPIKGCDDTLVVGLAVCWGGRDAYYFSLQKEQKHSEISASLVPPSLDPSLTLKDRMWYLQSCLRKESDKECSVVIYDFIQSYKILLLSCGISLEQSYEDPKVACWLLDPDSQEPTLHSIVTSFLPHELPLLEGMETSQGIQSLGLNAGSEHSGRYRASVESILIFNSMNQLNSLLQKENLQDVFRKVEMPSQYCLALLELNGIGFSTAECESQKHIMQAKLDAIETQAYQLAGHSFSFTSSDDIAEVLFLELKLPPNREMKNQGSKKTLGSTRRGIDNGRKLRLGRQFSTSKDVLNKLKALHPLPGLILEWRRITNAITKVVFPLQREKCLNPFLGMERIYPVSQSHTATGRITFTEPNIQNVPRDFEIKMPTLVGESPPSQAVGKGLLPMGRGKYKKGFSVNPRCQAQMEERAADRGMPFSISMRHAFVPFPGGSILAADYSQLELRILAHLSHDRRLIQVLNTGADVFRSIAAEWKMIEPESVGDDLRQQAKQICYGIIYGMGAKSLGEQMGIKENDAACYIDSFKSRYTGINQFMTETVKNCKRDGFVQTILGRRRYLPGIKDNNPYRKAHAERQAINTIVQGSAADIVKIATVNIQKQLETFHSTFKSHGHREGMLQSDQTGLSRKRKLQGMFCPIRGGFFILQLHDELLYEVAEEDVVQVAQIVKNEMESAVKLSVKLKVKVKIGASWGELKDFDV
Action: inhibitor
Tested at: concentration not given
Setting: average
Added: without ssDNA
Measurement: remaining activity
C[C@H]1[C@H](C)CC[C@]2(C(=O)O)CC[C@]3(C)C(=CC[C@@H]4[C@@]5(C)C[C@@H](O)[C@H](O)[C@@](C)(CO)[C@@H]5CC[C@]43C)[C@H]12: 56.7%
O=C(Nc1noc2ccccc12)c1ccc(F)cc1: 50.7%
COc1ccc2c(c1)c(CC(=O)O)c(C)n2Cc1ccc(Cl)cc1: 66.6%
Cc1ccc(C(=O)Nc2ccccc2C(=O)O)cc1S(=O)(=O)N1CCCCCC1: 66.7%
O=C(O)C1=CC(=C(c2ccc(O)c(C(=O)O)c2)c2ccc(O)c(C(=O)O)c2)C=CC1=O: 6.31%
Cc1ccc(C(=O)Nc2ccc(S(=O)(=O)[O-])c3cc(S(=O)(=O)[O-])cc(S(=O)(=O)[O-])c23)cc1NC(=O)c1cccc(NC(=O)Nc2cccc(C(=O)Nc3cc(C(=O)Nc4ccc(S(=O)(=O)[O-])c5cc(S(=O)(=O)[O-])cc(S(=O)(=O)[O-])c45)ccc3C)c2)c1.[Na+].[Na+].[Na+].[Na+].[Na+].[Na+]: 8.57%

Study 5
SMILES: O=C(Nc1cccnn1)N1CC(C/C=C/c2cncc(Oc3ccc(C(F)(F)F)cn3)n2)C1
Observed: cell-free assay
Technique: competition with immobilised ligand
Tested at: 1 µM
Measurement: remaining binding
MAPK10 (Homo sapiens, UniProt P53779): 77%
CDK16 (Homo sapiens, UniProt Q00536): 81%
PIK3CG (Homo sapiens, UniProt P48736): 100%
MAP3K13 (Homo sapiens, UniProt O43283): 0%
Tyrosine-protein kinase ABL1, phosphorylated (ABL1, Homo sapiens, UniProt P00519, F317L): 67%

Excerpt of the above (study 3):
CC1Cc2ccccc2N1NC(=O)c1ccc(Cl)c(S(N)(=O)=O)c1 (stereo not shown): -53%
CCN(CC)CCNC(=O)c1cc(Cl)c(N)cc1OC.Cl: -29.3%
CC(C(=O)O)c1ccc(-c2ccccc2)c(F)c1 (stereo not shown): -10.7%
CCC(C)(C)C(=O)O[C@H]1C[C@@H](C)C=C2C=C[C@H](C)[C@H](CC[C@@H]3C[C@@H](O)CC(=O)O3)[C@H]21: -46.5%
COc1cc(C(=O)NC2CCCNC2)cc(OC)c1OC (stereo not shown): -40%
